Measurements from different studies.
Each numbered part is a random draw from the data of one study; scales do not carry over between parts. “And” joins repeats or separate records; there may be more than shown.
UniProt P53671, sequence (whole entry, looked up): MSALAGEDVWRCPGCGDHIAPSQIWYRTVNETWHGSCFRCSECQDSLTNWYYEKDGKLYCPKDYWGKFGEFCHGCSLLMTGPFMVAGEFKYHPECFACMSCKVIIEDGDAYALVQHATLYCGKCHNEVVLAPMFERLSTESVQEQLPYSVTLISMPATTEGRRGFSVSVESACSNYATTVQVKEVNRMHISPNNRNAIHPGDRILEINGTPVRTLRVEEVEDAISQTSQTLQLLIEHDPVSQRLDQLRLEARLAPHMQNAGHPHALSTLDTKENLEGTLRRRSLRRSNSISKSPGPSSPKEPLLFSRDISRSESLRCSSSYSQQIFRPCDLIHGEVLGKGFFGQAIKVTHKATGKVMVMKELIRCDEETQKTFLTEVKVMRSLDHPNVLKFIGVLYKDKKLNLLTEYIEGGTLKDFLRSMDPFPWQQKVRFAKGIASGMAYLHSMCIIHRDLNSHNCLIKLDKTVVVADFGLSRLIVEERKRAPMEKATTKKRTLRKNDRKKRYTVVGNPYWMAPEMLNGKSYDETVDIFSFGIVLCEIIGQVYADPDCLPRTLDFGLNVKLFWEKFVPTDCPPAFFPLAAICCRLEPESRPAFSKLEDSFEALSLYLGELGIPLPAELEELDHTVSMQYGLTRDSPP
UniProt Q14004, sequence (whole entry, looked up): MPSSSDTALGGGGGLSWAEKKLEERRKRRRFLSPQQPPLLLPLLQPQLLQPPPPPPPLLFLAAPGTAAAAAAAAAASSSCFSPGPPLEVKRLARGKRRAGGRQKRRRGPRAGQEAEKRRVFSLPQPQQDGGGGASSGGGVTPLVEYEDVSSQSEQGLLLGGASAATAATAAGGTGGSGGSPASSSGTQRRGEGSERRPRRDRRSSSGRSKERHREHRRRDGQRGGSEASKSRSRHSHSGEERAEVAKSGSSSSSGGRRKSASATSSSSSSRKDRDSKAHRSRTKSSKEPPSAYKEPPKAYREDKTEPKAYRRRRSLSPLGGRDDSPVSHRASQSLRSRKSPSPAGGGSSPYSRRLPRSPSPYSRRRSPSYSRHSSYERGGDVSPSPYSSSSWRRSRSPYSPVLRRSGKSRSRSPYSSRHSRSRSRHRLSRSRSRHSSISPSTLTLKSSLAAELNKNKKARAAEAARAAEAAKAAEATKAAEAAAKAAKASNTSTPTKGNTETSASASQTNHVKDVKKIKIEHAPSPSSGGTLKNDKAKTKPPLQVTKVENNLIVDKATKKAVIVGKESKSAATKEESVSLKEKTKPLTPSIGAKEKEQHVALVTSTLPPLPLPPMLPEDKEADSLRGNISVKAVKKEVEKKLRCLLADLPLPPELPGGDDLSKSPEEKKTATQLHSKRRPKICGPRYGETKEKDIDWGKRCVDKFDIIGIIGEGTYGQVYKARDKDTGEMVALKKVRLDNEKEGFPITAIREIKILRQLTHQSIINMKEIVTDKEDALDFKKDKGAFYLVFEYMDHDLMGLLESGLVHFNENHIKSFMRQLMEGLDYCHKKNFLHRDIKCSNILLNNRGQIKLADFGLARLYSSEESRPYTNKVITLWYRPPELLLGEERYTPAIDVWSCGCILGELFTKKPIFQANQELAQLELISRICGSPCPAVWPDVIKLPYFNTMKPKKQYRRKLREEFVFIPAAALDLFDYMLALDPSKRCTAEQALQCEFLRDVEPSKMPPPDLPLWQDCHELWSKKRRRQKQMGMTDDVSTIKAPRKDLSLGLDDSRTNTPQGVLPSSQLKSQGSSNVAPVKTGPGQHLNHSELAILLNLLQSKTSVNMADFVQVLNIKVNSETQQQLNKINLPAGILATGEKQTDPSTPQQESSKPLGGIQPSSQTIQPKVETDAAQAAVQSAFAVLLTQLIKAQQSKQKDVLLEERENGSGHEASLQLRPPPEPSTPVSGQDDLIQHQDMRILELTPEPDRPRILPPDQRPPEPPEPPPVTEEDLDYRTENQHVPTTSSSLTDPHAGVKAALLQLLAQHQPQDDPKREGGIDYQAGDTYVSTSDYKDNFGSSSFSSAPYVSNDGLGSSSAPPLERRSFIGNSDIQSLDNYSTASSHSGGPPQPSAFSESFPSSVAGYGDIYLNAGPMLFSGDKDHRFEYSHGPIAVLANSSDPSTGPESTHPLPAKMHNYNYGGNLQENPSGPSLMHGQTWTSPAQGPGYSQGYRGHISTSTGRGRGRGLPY
UniProt P35590, sequence (whole entry, looked up): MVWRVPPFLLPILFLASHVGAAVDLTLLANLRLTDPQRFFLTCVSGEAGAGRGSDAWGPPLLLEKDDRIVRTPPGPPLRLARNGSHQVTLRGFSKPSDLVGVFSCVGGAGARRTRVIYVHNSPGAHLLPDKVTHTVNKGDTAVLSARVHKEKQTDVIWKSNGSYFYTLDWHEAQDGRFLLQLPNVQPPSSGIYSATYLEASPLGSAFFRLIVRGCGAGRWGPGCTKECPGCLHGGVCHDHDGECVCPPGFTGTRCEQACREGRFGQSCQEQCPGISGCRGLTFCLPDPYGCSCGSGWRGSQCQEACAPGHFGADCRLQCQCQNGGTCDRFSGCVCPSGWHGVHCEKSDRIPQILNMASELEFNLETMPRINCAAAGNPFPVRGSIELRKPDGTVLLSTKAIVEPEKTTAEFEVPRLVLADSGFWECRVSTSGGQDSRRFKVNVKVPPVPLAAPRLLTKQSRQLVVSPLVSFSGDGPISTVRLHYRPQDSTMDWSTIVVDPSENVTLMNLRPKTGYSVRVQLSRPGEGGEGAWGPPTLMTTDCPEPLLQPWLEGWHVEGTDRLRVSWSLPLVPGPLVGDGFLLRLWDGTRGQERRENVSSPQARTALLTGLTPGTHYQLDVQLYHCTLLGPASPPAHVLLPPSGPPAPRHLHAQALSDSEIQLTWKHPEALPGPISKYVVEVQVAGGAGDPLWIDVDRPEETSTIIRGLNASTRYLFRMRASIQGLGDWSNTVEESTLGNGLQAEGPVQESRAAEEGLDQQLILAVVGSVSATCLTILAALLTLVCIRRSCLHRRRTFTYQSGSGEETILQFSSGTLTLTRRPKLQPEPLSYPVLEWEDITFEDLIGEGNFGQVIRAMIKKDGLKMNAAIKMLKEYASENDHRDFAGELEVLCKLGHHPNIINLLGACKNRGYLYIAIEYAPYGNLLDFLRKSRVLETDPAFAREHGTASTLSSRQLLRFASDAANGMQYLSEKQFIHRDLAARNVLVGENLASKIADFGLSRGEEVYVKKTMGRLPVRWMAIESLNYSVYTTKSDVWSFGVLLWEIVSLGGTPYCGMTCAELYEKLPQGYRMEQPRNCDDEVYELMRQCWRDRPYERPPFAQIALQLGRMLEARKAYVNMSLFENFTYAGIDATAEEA
UniProt P53667, sequence (whole entry, looked up): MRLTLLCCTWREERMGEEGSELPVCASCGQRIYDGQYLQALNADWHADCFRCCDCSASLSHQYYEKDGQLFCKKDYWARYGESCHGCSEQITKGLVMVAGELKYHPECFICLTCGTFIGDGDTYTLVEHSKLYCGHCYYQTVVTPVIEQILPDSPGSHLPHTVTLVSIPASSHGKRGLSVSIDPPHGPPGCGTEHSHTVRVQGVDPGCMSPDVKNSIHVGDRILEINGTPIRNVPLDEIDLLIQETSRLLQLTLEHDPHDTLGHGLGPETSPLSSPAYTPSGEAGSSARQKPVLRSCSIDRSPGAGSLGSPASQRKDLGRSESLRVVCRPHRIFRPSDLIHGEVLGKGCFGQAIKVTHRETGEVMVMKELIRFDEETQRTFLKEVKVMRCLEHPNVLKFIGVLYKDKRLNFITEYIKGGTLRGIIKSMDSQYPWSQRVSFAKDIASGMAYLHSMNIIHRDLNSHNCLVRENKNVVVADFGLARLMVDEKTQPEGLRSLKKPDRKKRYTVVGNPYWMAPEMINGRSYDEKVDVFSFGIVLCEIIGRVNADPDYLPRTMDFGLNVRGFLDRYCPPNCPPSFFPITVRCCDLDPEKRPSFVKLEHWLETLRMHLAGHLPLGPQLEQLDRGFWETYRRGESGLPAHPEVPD
UniProt Q15418, sequence (whole entry, looked up): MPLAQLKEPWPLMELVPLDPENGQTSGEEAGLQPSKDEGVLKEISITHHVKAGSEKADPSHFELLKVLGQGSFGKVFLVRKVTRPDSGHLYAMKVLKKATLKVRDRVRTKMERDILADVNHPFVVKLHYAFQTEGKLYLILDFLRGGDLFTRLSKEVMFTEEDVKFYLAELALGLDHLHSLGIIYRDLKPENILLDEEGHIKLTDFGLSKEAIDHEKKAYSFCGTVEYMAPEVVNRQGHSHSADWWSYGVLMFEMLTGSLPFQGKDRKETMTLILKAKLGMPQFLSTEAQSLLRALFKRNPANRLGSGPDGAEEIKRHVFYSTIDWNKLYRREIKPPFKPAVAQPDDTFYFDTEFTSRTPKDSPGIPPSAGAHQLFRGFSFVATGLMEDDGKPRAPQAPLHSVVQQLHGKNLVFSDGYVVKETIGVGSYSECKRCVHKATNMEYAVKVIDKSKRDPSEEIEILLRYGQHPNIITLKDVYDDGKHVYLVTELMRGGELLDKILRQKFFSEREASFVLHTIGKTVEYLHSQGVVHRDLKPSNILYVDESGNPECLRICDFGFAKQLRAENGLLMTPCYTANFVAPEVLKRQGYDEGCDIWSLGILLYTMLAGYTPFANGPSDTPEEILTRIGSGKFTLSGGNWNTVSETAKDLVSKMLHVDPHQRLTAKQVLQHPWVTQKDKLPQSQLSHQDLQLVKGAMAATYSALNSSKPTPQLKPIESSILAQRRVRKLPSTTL

Sample 1
SMILES: O=C(COc1ccccc1P(=O)(O)O)NCC(F)(F)c1cccc(F)c1
Cell line: human islets
Method: qPCR
Concentration: concentration not given
Notes: unit not given
| measured | with | baseline | mRNA level |
| --- | --- | --- | --- |
| BRAF | low glucose | low glucose control | 1.24 and 2.11 and 0.756 and 1.01 |
| NFATC1 | high glucose (20 mM) | low glucose control | 0.92 and 0.438 and 0.815 and 1.3 |
| RELA | low glucose | low glucose control | 0.962 and 1.75 and 1.1 and 1.05 |
| PIN1 | low glucose | low glucose control | 1.5 and 0.928 and 0.986 and 1.11 |
| USP8 | glucolipotoxic conditions | low glucose control | 1.13 and 1.07 and 1.06 and 1.56 |
| INS | 20 mM glucose plus 500 µM palmitate | low glucose | 5.23 and 3.86 and 3.08 |

Sample 2
SMILES: CCCOc1ccc([C@H]2[C@H](C(=O)O)[C@@H](c3ccc4c(c3)OCO4)CN2CC(=O)Nc2c(CC)cccc2CC)cc1
Concentration: 1 µM
| target | read-out | method | remaining binding [%] |
| --- | --- | --- | --- |
| G protein-coupled receptor kinase 3 (GRK3, Homo sapiens, UniProt P35626) | cell-free assay | competition with immobilised ligand | 73 |
| Epidermal growth factor receptor (EGFR, Homo sapiens, UniProt P00533, del752-759) | cell-free assay | competition with immobilised ligand | 100 |
| Cyclin-dependent kinase 13 (CDK13, Homo sapiens, UniProt Q14004) | cell-free assay | competition with immobilised ligand | 45 |
| Serine/threonine-protein kinase MRCK gamma (CDC42BPG, Homo sapiens, UniProt Q6DT37) | – | competition binding | 79 |
| LIM domain kinase 1 (LIMK1, Homo sapiens, UniProt P53667) | cell-free assay | competition with immobilised ligand | 100 |
| LIM domain kinase 2 (LIMK2, Homo sapiens, UniProt P53671) | cell-free assay | competition with immobilised ligand | 100 |
| Insulin-like growth factor 1 receptor (IGF1R, Homo sapiens, UniProt P08069) | cell-free assay | competition with immobilised ligand | 89 |
| Beta-adrenergic receptor kinase 1 (GRK2, Homo sapiens, UniProt P25098) | cell-free assay | competition with immobilised ligand | 51 |
| Tyrosine-protein kinase receptor Tie-1 (TIE1, Homo sapiens, UniProt P35590) | cell-free assay | competition with immobilised ligand | 94 |
| Membrane-associated tyrosine- and threonine-specific cdc2-inhibitory kinase (PKMYT1, Homo sapiens, UniProt Q99640) | cell-free assay | competition with immobilised ligand | 74 |
| Tyrosine-protein kinase Fer (FER, Homo sapiens, UniProt P16591) | cell-free assay | competition with immobilised ligand | 100 |
| Tyrosine-protein kinase ABL1, phosphorylated (ABL1, Homo sapiens, UniProt P00519, F317I) | binding | – | 71 |
| Serine/threonine-protein kinase SIK3 (SIK3, Homo sapiens, UniProt Q9Y2K2) | cell-free assay | competition with immobilised ligand | 71 |
| Ribosomal protein S6 kinase alpha-1, N-terminal kinase domain (RPS6KA1, Homo sapiens, UniProt Q15418) | cell-free assay | competition with immobilised ligand | 87 |
| Receptor-type tyrosine-protein kinase FLT3 (FLT3, Homo sapiens, UniProt P36888, D835H) | cell-free assay | competition with immobilised ligand | 92 |

Sample 3
Target: panel of 300 human kinases
Concentration: 0.5 µM
Reading: higher = more selective
| Compound | Gini score |
| --- | --- |
| Cc1[nH]c(/C=C2\C(=O)Nc3ccc(S(=O)(=O)N(C)c4cccc(Cl)c4)cc32)c(C)c1C(=O)N1CCN(C)CC1 | 0.63 |
| CC(C)(C)c1nc2c3cc[nH]c(=O)c3c3cc(F)ccc3c2[nH]1 | 0.54 |
| COc1cc2ncnc(Nc3ccc(F)c(Cl)c3)c2cc1OCCCN1CCOCC1 | 0.69 |
| COc1cc2c(N3CCN(C(=O)Nc4ccc(OC(C)C)cc4)CC3)ncnc2cc1OCCCN1CCCCC1 | 0.78 |
| COc1ccc(CNC(=O)Nc2ncc([N+](=O)[O-])s2)cc1 | 0.7 |
| Cc1nc(-c2ccccc2)c(-c2ccncc2)o1 | 0.71 |
| Cn1c2ccccc2c2c3c(c4c5ccccc5n(CCC#N)c4c21)CNC3=O | 0.49 |
| NCCNc1ncc(C(N)=O)c(Nc2cccc(C(F)(F)F)c2)n1 | 0.58 |
| O=C(O)/C=C/c1cc(Br)c(Br)c(Br)c1Br | 0.6 |

Mixed results
| Structure (SMILES) | medium | measurement | value |
| --- | --- | --- | --- |
| CCC[C@@H]1NC(=O)CSC[C@@H](C(=O)OCC)N(C)C(=O)[C@H](CC(C)C)NC(=O)[C@@H](C)N(C)C(=O)[C@H](CC(C)C)NC(=O)[C@H](C)N(C)C(=O)[C@H]2CCCN2C(=O)[C@H](CC(C)C)NC(=O)CN(CCC)C1=O | hydrocarbon/water | logD | 1.44 |

Some of these lines once more (sample 1):
| measured | with | baseline | mRNA level |
| --- | --- | --- | --- |
| PIN1 | low glucose | low glucose control | 1.5 and 0.928 and 0.986 and 1.11 |
| USP8 | glucolipotoxic conditions | low glucose control | 1.13 and 1.07 and 1.06 and 1.56 |
| RELA | low glucose | low glucose control | 0.962 and 1.75 and 1.1 and 1.05 |
| BRAF | low glucose | low glucose control | 1.24 and 2.11 and 0.756 and 1.01 |
